Experimental data of several laboratories.
A part holds a random share of what one study measured. Positions count from the first letter of the parent shown.
Sequence of UniProt P46098 (whole entry, looked up): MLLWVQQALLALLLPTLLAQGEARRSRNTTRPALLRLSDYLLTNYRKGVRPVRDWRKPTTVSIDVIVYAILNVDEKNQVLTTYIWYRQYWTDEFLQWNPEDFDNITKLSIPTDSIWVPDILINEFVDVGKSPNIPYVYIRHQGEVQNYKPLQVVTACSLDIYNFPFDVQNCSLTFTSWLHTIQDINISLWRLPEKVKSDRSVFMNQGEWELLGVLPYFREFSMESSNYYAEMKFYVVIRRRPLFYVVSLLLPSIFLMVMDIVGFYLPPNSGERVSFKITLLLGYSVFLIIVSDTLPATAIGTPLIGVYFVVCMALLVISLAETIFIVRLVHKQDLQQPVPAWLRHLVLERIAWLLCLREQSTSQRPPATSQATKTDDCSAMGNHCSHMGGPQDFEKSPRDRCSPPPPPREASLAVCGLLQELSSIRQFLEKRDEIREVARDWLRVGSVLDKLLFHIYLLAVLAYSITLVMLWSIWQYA

Sample 1 — observed: binding; method: phage display NGS; form: peptide; reference: input library
Target: UDP-N-acetylglucosamine--peptide N-acetylglucosaminyltransferase 110 kDa subunit (OGT, Homo sapiens, UniProt O15294)
Sequence of UniProt O15294 (whole entry, looked up): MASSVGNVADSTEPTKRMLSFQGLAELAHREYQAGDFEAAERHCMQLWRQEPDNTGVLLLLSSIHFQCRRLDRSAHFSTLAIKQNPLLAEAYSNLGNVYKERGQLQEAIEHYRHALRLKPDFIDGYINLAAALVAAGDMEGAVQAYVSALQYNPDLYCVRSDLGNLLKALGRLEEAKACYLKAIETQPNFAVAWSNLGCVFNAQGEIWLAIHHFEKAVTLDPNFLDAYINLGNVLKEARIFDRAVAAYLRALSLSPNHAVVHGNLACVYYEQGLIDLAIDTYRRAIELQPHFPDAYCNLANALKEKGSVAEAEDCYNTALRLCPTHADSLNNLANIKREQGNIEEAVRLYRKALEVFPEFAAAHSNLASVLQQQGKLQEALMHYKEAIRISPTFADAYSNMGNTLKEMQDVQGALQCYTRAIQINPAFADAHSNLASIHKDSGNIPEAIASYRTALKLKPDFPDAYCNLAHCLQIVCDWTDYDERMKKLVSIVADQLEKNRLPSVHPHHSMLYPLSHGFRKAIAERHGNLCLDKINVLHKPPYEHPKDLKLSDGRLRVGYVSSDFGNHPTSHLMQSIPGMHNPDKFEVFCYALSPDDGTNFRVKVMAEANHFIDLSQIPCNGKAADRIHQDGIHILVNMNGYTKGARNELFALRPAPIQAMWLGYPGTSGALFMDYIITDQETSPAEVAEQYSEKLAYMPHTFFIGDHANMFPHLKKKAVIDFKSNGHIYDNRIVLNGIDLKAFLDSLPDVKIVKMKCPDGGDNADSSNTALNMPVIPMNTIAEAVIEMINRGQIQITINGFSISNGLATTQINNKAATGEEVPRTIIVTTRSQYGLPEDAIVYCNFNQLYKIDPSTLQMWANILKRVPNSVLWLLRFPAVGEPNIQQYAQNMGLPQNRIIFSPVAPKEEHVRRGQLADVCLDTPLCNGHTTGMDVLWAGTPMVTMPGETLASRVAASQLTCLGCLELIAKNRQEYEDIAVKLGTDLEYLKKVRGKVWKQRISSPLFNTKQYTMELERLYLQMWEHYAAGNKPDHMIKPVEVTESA
Under “minimum log2 enrichment ratio”, `STFGRYLPSYIIQYR` is recorded as 5.06.
`SYRPQYFITYEKVSA`: “minimum log2 enrichment ratio” 3.83.
For `VYSPVYQIIVNQNH`, “minimum log2 enrichment ratio” read 3.43.
`SRTLTPMYQIHPFTS` — result for “minimum log2 enrichment ratio”: 1.17.
`KYTPLYQIHAMPQAV` — result for “minimum log2 enrichment ratio”: 1.37.
For `HWQRHHMDAPFQMPY`, “minimum log2 enrichment ratio” read 2.33.
`GKRDHTFHMHSSVH` — result for “minimum log2 enrichment ratio”: 2.33.
Under “minimum log2 enrichment ratio”, `WMENFHMPSMMHIQY` is recorded as 1.39.

Sample 2 — target: CCND2, cyclin fold, Cln2 fusion (human); method: yeast growth competition, sequencing; matrix: yeast; notes: weak parent motif; reference: not given; reading: higher = stronger binding
Starting sequence: viral docking peptide; CKVKRKLFGSENI; partner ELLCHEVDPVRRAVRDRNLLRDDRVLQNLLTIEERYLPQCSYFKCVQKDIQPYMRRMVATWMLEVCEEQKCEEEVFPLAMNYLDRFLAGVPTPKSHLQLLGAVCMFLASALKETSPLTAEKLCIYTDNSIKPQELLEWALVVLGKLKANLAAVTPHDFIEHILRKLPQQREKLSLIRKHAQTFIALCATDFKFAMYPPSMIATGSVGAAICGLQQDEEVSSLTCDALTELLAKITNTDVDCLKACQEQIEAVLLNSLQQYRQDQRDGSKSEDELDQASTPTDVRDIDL
Under “normalised enrichment score”, `V3A` is recorded as 0.537.
For `E11A`, “normalised enrichment score” read 0.115.
For `R5A`, “normalised enrichment score” read -0.202.
`K6A`: “normalised enrichment score” 0.316.
`R5K F8L` — result for “normalised enrichment score”: -0.178.

Sample 3 — target: tungstate, free oxyanion; method: microfluidic competitive inhibition; matrix: in vitro, cell-free expressed; concentration: not given; reading: lower = stronger binding
Notes: derived from inhibition constants, unchanged parent 2230 nM
Starting sequence: PafA, mature enzyme, eGFP fusion (Elizabethkingia meningoseptica, UniProt Q9KJX5); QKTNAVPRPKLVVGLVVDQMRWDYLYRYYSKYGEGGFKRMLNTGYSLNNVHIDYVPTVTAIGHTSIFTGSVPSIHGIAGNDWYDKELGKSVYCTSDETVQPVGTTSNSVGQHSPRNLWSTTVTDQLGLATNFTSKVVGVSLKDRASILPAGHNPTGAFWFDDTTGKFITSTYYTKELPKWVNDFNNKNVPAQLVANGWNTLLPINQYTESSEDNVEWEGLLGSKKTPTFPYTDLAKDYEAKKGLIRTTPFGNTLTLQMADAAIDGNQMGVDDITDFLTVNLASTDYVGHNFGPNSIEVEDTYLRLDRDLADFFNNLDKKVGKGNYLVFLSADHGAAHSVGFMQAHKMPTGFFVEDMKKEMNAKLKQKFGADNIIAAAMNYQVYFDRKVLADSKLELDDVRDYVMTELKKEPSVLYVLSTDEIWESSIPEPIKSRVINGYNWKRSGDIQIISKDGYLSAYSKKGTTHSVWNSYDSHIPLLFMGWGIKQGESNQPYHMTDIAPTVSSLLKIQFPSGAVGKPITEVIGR
`L417V` — result for “oxyanion analog dissociation constant”: 2.29 µM.
`Q100G`: “oxyanion analog dissociation constant” 1.94 µM.
For `D81V`, “oxyanion analog dissociation constant” read 3.14 µM.
For `T43V`, “oxyanion analog dissociation constant” read 2.68 µM.
`V55G` — result for “oxyanion analog dissociation constant”: 1.72 µM.
Under “oxyanion analog dissociation constant”, `L234V` is recorded as 2.16 µM.
`T57V` — result for “oxyanion analog dissociation constant”: 1.56 µM.
`E421V`: “oxyanion analog dissociation constant” 2.61 µM.

Further values, each from its own experiment
For `Cn1cncc1[C@](O)(COc1ccc(C#N)cc1-c1ccc(OC(F)(F)F)cc1)c1ccc(C#N)cc1`, the inhibition was 17.6% (5-hydroxytryptamine receptor 3A (HTR3A, Homo sapiens, UniProt P46098); binding, radioligand binding; 10 µM).

Repeated from above (sample 3):
`Q100G`: “oxyanion analog dissociation constant” 1.94 µM.
For `D81V`, “oxyanion analog dissociation constant” read 3.14 µM.
